Experimental data gathered from unrelated publications.
Protocols differ between the studies behind these lines. ± marks the error that the study gave.

O=C(O)CC[C@H](NC(=O)O[C@@H](CCCCNC(=O)c1ccc([18F])cc1)C(=O)O)C(=O)O gave a tissue uptake of 0.11 ± 0.02 %ID/g (mouse, PC-3 PIP/flu xenografts, heart; 90 min).
With C[C@]12CC[C@H](OCC[18F])C[C@H]1CC[C@@H]1[C@@H]2CC[C@]2(C)[C@@H](c3ccc(=O)oc3)CC[C@]12O the tissue uptake was 2.48 ± 0.57 %ID/g (micro-PET imaging; BALB/c nude mice, SMMC-7721 xenograft, tumour; intravenous, 7.4 MBq, 6 h).
COc1ccc(C)cc1NC(=O)OC1CC2CCCC(C1)N2Cc1ccc(CC[18F])cc1 (stereo not drawn) has a tissue uptake of 18.5 ± 2.5 %ID/g (BALB/c mice, EMT6 tumour, heart; 5 min).
C=Cc1cc(O)cc2nc(-c3ccc(O)c([76Br])c3)oc12 has a tissue uptake of 0.3 ± 0.15 %ID/g (female C57BL/6 mouse, ovaries; 1 h, high dose, added: estradiol 20 µg blocking).
With N=C(N)NCc1ccc(C(=O)NCCCC[C@H](NC(=O)N[C@@H](CCC(=O)O)C(=O)O)C(=O)O)cc1[211At] the tissue uptake was 1.29 ± 0.37 %ID/g (SCID mouse, PC-3 xenografts, heart; 1 h).
With COc1cc2ncnc(Oc3cccc(N[11C](=O)Nc4cc(C(C)(C)C(F)(F)F)on4)c3)c2cc1OC the tissue uptake was 3.33 ± 0.11 %ID/g (Balb/c nude mouse, female, A375 melanoma xenograft, heart; 6.6 MBq, 30 min).
With COc1cc2ccnc(Cc3ccc(O[11CH3])c(OC)c3)c2cc1OC the tissue uptake was 0.132 ± 0.009 %ID/g (Sprague-Dawley rats, muscle; intravenous, 0.08333 h).
CN[C@](C)(C[18F])C(=O)O has a tissue uptake of 7.3 ± 1.1 %ID/g (SCID mouse MDA-MB-468 xenograft, spleen; 60 min, post injection).
CCCC[C@H](NC(=O)CCOCCOCCNC(=O)CN1CCN(CC(=O)O)CCN(CC(=O)O)CCN(CC(=O)O)CC1)C(=O)N[C@H]1CC(=O)NCCCC[C@@H](C(N)=O)NC(=O)[C@H](Cc2c[nH]c3ccccc23)NC(=O)[C@H](CCCNC(=N)N)NC(=O)[C@@H](Cc2ccccc2)NC(=O)[C@H](Cc2c[nH]cn2)NC1=O [gallium-68 labelled] has a tissue uptake of 0.3 ± 0.1 %ID/g (C57BL/6J mice male B16-F10 tumour, spleen; 1 h post injection, unblocked).
N=C(N)NCc1ccc(C(=O)NCCCC[C@H](NC(=O)CCCCCCC(=O)NCCCC[C@H](NC(=O)N[C@@H](CCC(=O)O)C(=O)O)C(=O)O)C(=O)O)cc1[131I] has a tissue uptake of 0.46 ± 0.17 %ID/g (SCID mouse, PC-3 xenografts, blood; 1 h).
With O=C(c1ccc(F)cc1)C1CCN(C2Cc3c(cccc3OCC[18F])CC2O)CC1 (single isomer, unassigned; (-)) the tissue uptake was 0.235 ± 0.01 %ID/g (Sprague-Dawley rat, male, muscle; intravenous, dose not given, 120 min).
For N=C(N)NCc1ccc(C(=O)NCCCC[C@H](NC(=O)CCCCCCC(=O)NCCCC[C@H](NC(=O)N[C@@H](CCC(=O)O)C(=O)O)C(=O)O)C(=O)O)cc1[211At], the tissue uptake was 0.84 ± 0.27 %ID/g (SCID mouse, PC-3 xenografts, heart; 1 h).
With CCNc1cc2[o+]c3cc(NCC)c(C)cc3c(-c3ccccc3C(=O)OCCOCC[18F])c2cc1C the tissue uptake was 0.58 ± 0.19 %ID/g (rat, lung; 60 min).
For N=C(N)NCc1ccc(C(=O)NCCCC[C@H](NC(=O)N[C@@H](CCC(=O)O)C(=O)O)C(=O)O)cc1[131I], the tissue uptake was 0.73 ± 0.13 %ID/g (SCID mouse, PC-3 xenografts, blood; 1 h).
COc1cc(C(=O)NCCOCCOCCOCCNC(=O)c2ccc([18F])nc2)ccc1NC(=O)C1NC(CC(C)(C)C)C(C#N)(c2ccc(Cl)cc2F)C1c1cccc(Cl)c1F (stereo not drawn) has a tissue uptake of 16.9 ± 1.45 %ID/g (athymic male mice, HepG2 xenograft, large intestine; 4 h).

Repeated from above:
For N=C(N)NCc1ccc(C(=O)NCCCC[C@H](NC(=O)CCCCCCC(=O)NCCCC[C@H](NC(=O)N[C@@H](CCC(=O)O)C(=O)O)C(=O)O)C(=O)O)cc1[211At], the tissue uptake was 0.84 ± 0.27 %ID/g (SCID mouse, PC-3 xenografts, heart; 1 h).
CN[C@](C)(C[18F])C(=O)O has a tissue uptake of 7.3 ± 1.1 %ID/g (SCID mouse MDA-MB-468 xenograft, spleen; 60 min, post injection).
